Experimental data of several laboratories.
Protocols differ between the studies behind these lines. ± marks the error that the study gave.
GSK3B: Glycogen synthase kinase-3 beta (GSK3B, Homo sapiens, UniProt P49841)
UniProt P49841, sequence (whole entry, looked up): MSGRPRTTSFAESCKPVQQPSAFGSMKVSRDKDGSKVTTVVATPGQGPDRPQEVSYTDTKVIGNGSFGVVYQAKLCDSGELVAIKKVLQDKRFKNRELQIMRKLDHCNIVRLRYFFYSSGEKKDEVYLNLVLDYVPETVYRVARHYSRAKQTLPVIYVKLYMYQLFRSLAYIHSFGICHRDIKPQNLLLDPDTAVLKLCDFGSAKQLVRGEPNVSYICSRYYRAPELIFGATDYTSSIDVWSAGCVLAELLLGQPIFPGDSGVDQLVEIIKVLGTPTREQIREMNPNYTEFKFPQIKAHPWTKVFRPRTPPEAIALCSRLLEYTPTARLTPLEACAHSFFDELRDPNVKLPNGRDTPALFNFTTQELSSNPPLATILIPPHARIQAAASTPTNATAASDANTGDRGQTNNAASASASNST
UCHL1: Ubiquitin carboxyl-terminal hydrolase isozyme L1 (UCHL1, Homo sapiens, UniProt P09936)
UniProt P09936, sequence (whole entry, looked up): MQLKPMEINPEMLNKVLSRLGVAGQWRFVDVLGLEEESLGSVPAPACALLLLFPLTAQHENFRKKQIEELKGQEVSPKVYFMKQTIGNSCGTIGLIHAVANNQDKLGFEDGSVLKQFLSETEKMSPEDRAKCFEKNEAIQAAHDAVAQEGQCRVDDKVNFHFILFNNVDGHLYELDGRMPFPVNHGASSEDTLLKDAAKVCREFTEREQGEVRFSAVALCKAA
GSK3B with Nav1.6: Glycogen synthase kinase-3 beta, with Nav1.6 (GSK3B, Homo sapiens, UniProt P49841)

| Structure (SMILES) | target | assay | system | setting | how to read | measurement | result |
| --- | --- | --- | --- | --- | --- | --- | --- |
| C=CC(=O)N1CCC(COCC(=O)N2CCN(c3nc(-c4cnc(N)nc4C(F)F)nc(N4CCOC[C@@H]4C)n3)CC2)CC1 | GSK3B | KINOMEscan | – | 1 µM | – | remaining binding | 99% |
| CC(C)(C)NC[C@H](O)COc1ccccc1C1CCCC1 | GSK3B | enzyme activity, inhibitor, ADP-Glo | – | 100 µM | – | inhibition | no inhibition |
| COc1cc(C=C(C#N)C(=O)Nc2c(C)cc(C)cc2C)cc(OC)c1 | UCHL1 | covalent, intact protein LC-MS | – | 12.5 µM | – | labelling | 35.9% |
| COc1cc(C=C(C(=O)/C=C/c2ccc(O)c(OC)c2)C(=O)/C=C/c2ccc(O)c(OC)c2)ccc1O | GSK3B | – | – | concentration not given, cell-based | – | activity | inactive |
| Cc1c[nH]c(-c2cnc(NCCNc3ccc(C#N)cn3)nc2-c2ccc(Cl)cc2Cl)n1 | GSK3B with Nav1.6 | protein complex assembly, split-luciferase complementation | HEK293 | 2 µM | reference: DMSO control | luminescence | 103 ± 2.6% |
| COc1cc(/C=C2\CCC/C(=C\c3ccc(O)c(OC)c3)C2=O)ccc1O | GSK3B | – | – | concentration not given, cell-based | – | activity | inactive |
| Cl.c1ccc2c(c1)CN1CCCC1=N2 | GSK3B | enzyme activity, inhibitor, ADP-Glo | – | 100 µM | – | inhibition | no inhibition |
| Cn1sc(=O)n(Cc2ccccc2)c1=O | GSK3B | – | yeast expressing human GSK-3 | 20 mM, 37 °C | – | inhibition zone diameter | 18 ± 1.66 mm |
| O=C(NC1CCC1)c1ccc2nc(-c3cccc(NS(=O)(=O)NCCN4CCCCC4)c3)cn2c1 | GSK3B | enzyme activity | – | 10 µM | – | remaining activity | 64% |
| COC(=O)C1=C(C)NC(C)=C(C(=O)OC)C1c1ccccc1[N+](=O)[O-] | GSK3B | inhibitor, ADP-Glo kinase | – | – | – | Hill slope | -1.27 |
| COc1cc(/C=C/c2cc(/C=C/c3ccc(O)c(OC)c3)n(-c3ccc(Cl)cc3Cl)n2)ccc1O | GSK3B | – | – | concentration not given, cell-based | – | activity | inactive |
| Cc1ccc(OCC(=O)Nc2ccc3c(c2)C(=O)NC3=O)cc1 | GSK3B with Nav1.6 | protein complex assembly, split-luciferase complementation | HEK293 with Nav1.6 co-transfected | 0.5 to 150 µM | – | maximal inhibition | 4.7% |
| O=C1Nc2ccccc2C12CC2c1ccccn1 (stereo not drawn) | GSK3B | – | – | concentration not given | – | activity | active |
| COc1ccc(F)cc1C(=O)NCc1ccc(-c2nn([C@@H](C)C(F)(F)F)c(N)c2C(N)=O)cc1 | GSK3B | target engagement, competitive chemoproteomics | human PBMCs | 1 µM | – | inhibition | -76% |
| CC#CC(=O)NC1CCCN(C(=O)c2ccc(F)cc2Cl)C1 (stereo not drawn) | UCHL1 | covalent, intact protein LC-MS | – | 12.5 µM | – | labelling | 10.3% |
| CCOC(=O)c1c(NC(=O)CNC(C)C)sc2c1CCCCC2 | GSK3B with Nav1.6 | protein complex assembly, split-luciferase complementation | HEK293 with Nav1.6 co-transfected | 0.5 to 150 µM | – | maximal inhibition | 67.2% |
| Cl.OC(CNCC(O)C1CCc2cc(F)ccc2O1)C1CCc2cc(F)ccc2O1 (stereo not drawn) | GSK3B | enzyme activity, inhibitor, ADP-Glo | – | 100 µM | – | inhibition | no inhibition |
| Nc1nc(Nc2ccccc2)sc1C(=O)c1c(F)cccc1F | GSK3B | enzyme activity, inhibitor | – | 10 µM | – | remaining activity | 4% |

For quick reference, copied from above:
| Structure (SMILES) | target | assay | system | setting | how to read | measurement | result |
| --- | --- | --- | --- | --- | --- | --- | --- |
| O=C(NC1CCC1)c1ccc2nc(-c3cccc(NS(=O)(=O)NCCN4CCCCC4)c3)cn2c1 | GSK3B | enzyme activity | – | 10 µM | – | remaining activity | 64% |
| COc1cc(C=C(C(=O)/C=C/c2ccc(O)c(OC)c2)C(=O)/C=C/c2ccc(O)c(OC)c2)ccc1O | GSK3B | – | – | concentration not given, cell-based | – | activity | inactive |
| CC#CC(=O)NC1CCCN(C(=O)c2ccc(F)cc2Cl)C1 (stereo not drawn) | UCHL1 | covalent, intact protein LC-MS | – | 12.5 µM | – | labelling | 10.3% |
